Measured values from different studies.
Numbered parts are unrelated; each lists some results of a single study.

Block 1 — technique: protein-binding microarray; form: double-stranded DNA, one strand shown; sample: in vitro; tested at: not given; direction: higher = stronger binding
Target: Protein max, full length (MAX, Homo sapiens, UniProt P61244-2, residues 1-151)
Setting: k-mer, scored over probes, only values ≥0.25
| Strand | E-score |
| --- | --- |
| ATGCGGTA | 0.306 |
| CACACCTC | 0.252 |
| CACGCGAG | 0.393 |
| ATGTGGGA | 0.323 |
| AAGCACGG | 0.253 |
| CACACGTA | 0.252 |
| ACTCACGC | 0.326 |
| ATCGCCAC | 0.258 |
| GTGCAGCA | 0.255 |
| CATGCTTC | 0.447 |
| CTAGTCAC | 0.28 |
| CATGGCGA | 0.283 |
| GCGTGTAA | 0.371 |
| CACGCATC | 0.345 |
| CGCGAGCA | 0.291 |
| ACGTGAGG | 0.383 |
| CATGTGCA | 0.474 |
| CCGGCACG | 0.35 |
| GCGTGATA | 0.391 |
| GCGTGTTA | 0.398 |
| ATTGCATG | 0.326 |
| ACGTGGTG | 0.42 |
| AACCACAT | 0.321 |
| ACGCTGAC | 0.307 |
| AGCATGAT | 0.4 |

Block 2 — technique: protein-binding microarray; form: double-stranded DNA, one strand shown; sample: in vitro; tested at: 940 nM top; setting: 60-bp whole probe; added: salmon DNA 0.4 mg/ml; reference: random background probes; direction: higher = stronger binding; constant ends, left off below: GCCTAGCAC … GTCTTGATTCGCTTGACGCTGCTG
Target: Interferon regulatory factor 5, full length, phosphomimetic (IRF5, Homo sapiens, UniProt Q13568-2, residues 1-514, S451D/S453D/S456D/S462D)
| Strand | fitted relative affinity |
| --- | --- |
| TCCACTTTCTTAATGCTTCTGTGCTAG | 1.74 z-score |
| GACGGTCTCCTTATCCTAACGTGCTAG | 0.56 z-score |
| TTAGGACGGGGTTTCGGTTAGTGCTAG | 7.05 z-score |
| TCAATCCTCTCACCTCAGACTGTGCTA | 1.01 z-score |
| TCAGTTCTTTTTTTCAAACTGTGCTAG | 1.18 z-score |
| TTAGAACTGACTATCGATTAGTGCTAG | 0.183 z-score |
| TTAGGTATCGACCATCGGTTAGTGCTA | 4.94 z-score |
| TAAGGTTCCCTTTTCCTTTAGTGCTAG | 0.617 z-score |
| TTTCACACTGTCCAGCAGGTGTGCTAG | 3.69 z-score |
| TTAGGTATCGGACTCGGTTAGTGCTAG | 3.58 z-score |
| TTAGATCTCAGTTTCGTTTAGTGCTAG | 6.09 z-score |
| TCGGTGATCAGTCTGATGGTGTGCTAG | 0.168 z-score |
| GACGGTTTCCTTATGCTGACGTGCTAG | 1.23 z-score |
| TCATTTCTCCTTTCCAAACTGTGCTAG | 1.75 z-score |
| TTAGAACTTAGACTGGATTAGTGCTAG | -0.545 z-score |
| GATGGTATCGGGACTGGGGACGTGCTA | 4.42 z-score |
| GACGAACTGTGGTTTCGAGACGTGCTA | 2.29 z-score |
| GACGATCTCAGTATCGAGGCGTGCTAG | 1.61 z-score |
| GACGATCTCAGACTGGGGACGTGCTAG | -0.294 z-score |

Block 3 — technique: competition protein-binding microarray; form: double-stranded DNA, one strand shown; sample: in vitro; tested at: 2 µM; added: Cbf1 competitor, 0.05 µM; direction: higher = stronger binding; constant ends, left off below: … GTCTTGATTCGCTTGACGCTGCTG
Target: Phosphate system positive regulatory protein PHO4, full length, GST-tagged (PHO4, Saccharomyces cerevisiae, UniProt P07270, residues 1-312)
Setting: whole 60-bp probe, lowest competitor level
Residues (chain): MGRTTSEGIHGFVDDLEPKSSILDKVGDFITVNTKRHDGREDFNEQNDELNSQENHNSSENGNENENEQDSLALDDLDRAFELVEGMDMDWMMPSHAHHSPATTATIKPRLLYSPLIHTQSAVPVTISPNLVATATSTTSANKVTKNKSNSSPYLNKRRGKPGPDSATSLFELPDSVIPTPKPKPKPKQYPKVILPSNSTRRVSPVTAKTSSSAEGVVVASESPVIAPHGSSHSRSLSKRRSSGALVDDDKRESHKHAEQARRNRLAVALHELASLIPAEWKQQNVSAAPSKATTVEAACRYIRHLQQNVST
| Strand | fluorescence intensity |
| --- | --- |
| TTCTTTAGAGGTTCACACGTAGTAAAAGAAAAAAAA | 6110 a.u. |
| CTAACGAAGGTTTGCGTCGTGGGTGACAAGCCAAGT | 7250 a.u. |
| CTAACGAAGGTTTGGAGTGTGGGTGACAAGCCAAGT | 5370 a.u. |
| ATTTCTTTTTTTCTACACGTTGGTCTGATGTCTCAG | 10300 a.u. |
| TACATCCCTTTTACACCCGTGCAAAAAAGGTGTTTG | 7270 a.u. |
| CGGGGTTAAGTTTGCCGGGTGGGTGGCTTGCAGCAG | 5300 a.u. |
| CGACATTCAGACCTACACGTACAAAACACGAATGCT | 6870 a.u. |
| CTTTCCCGATCTTGAAATGTGGGTGTAGCACATTTG | 6550 a.u. |
| CGGGGTTAAGTTTGTCACACAACTTGCTTGCAGCAG | 3730 a.u. |
| ACCTCTTCCATGTCCCACGTAATGGCAATTGGCATA | 6510 a.u. |
| AGCCGCAATACGTATCACATGGCTCAACCAATCTCG | 7700 a.u. |
| CGGGGTTAAGTTTGGGGCGTGGGTGGCTTGCAGCAG | 9340 a.u. |
| AATCGCTCATTATCTTCGCTGCCATTTTCACCCTGA | 3170 a.u. |
| TGAAAAAACCCTTTTCGCGTGCCAGTGATGCTTCCA | 7070 a.u. |
| ATGTTCCTCAAGGTGCTCGTGTCCACACCGAAAAAT | 9820 a.u. |
| CGTCCTAGTGATTGCGTTGTGGGTGCCATGAGGAAG | 6860 a.u. |
| AGCTGCAATTAATGCAGTTGAGAACTAGCTTTTTTT | 2870 a.u. |
| AATTTGGCGCCGAGTCACGATATACTTGTACAGTGA | 4290 a.u. |
| TGCGCAACAACTTGGTACGTGGGTGTATGTCTAGAA | 9100 a.u. |

Block 4 — technique: protein binding microarray; form: double-stranded DNA, one strand shown; sample: in vitro; tested at: not given; reference: not given; direction: higher = stronger binding
Target: Histone acetyltransferase KAT6A, winged helix 1, GST fusion (KAT6A, Homo sapiens, UniProt Q92794, residues 1-85)
Setting: 8-mer, flanks averaged, mean of 2 arrays, mostly near background
Target sequence (chain): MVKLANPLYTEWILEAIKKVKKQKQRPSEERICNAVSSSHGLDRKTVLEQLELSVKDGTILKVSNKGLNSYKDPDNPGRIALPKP
| Strand | E-score |
| --- | --- |
| CCTGGAAG | -0.233 |
| CGCTGCCG | 0.396 |
| CCGAGGTA | -0.0476 |
| ATAGACGG | 0.0769 |
| AAGCTCCG | 0.177 |
| CCCTGTAG | -0.115 |
| AGGATCTC | -0.226 |
| AATTAATA | -0.0666 |
| GAGCCCAC | -0.0724 |
| GTAAGTAA | -0.0873 |
| GCTTGTCC | -0.00298 |
| CAGAGCCA | -0.226 |
| TTACGAAA | -0.173 |
| CCTTCACA | -0.168 |
| CAGTCTAA | -0.0211 |
| CCGACCAG | 0.0823 |
| CCTCGTAG | -0.00965 |
| GATTCAGC | 0.0329 |
| ACGTCGTC | 0.102 |
| AAACACCT | -0.0791 |
| CGACCCAA | -0.19 |
| CTGTTCTA | -0.144 |
| CGAATGGC | 0.0192 |
| CAAAGGTC | -0.13 |
| GTGGACGA | -0.054 |

For quick reference, copied from above (block 1):
| Strand | E-score |
| --- | --- |
| GCGTGTTA | 0.398 |
| ATTGCATG | 0.326 |
| ACGTGGTG | 0.42 |
| AACCACAT | 0.321 |
| ACGCTGAC | 0.307 |
